Experimental data from different studies.
Protocols differ between the studies behind these lines. Values joined by “and” are separate records of one study, mostly repeats; a detail may differ. Numbers after ± are the reported error.
GBA2: Beta-glucosidase (GBA2, Homo sapiens, UniProt Q9HCG7)
Sequence of UniProt Q9HCG7 (whole entry, looked up): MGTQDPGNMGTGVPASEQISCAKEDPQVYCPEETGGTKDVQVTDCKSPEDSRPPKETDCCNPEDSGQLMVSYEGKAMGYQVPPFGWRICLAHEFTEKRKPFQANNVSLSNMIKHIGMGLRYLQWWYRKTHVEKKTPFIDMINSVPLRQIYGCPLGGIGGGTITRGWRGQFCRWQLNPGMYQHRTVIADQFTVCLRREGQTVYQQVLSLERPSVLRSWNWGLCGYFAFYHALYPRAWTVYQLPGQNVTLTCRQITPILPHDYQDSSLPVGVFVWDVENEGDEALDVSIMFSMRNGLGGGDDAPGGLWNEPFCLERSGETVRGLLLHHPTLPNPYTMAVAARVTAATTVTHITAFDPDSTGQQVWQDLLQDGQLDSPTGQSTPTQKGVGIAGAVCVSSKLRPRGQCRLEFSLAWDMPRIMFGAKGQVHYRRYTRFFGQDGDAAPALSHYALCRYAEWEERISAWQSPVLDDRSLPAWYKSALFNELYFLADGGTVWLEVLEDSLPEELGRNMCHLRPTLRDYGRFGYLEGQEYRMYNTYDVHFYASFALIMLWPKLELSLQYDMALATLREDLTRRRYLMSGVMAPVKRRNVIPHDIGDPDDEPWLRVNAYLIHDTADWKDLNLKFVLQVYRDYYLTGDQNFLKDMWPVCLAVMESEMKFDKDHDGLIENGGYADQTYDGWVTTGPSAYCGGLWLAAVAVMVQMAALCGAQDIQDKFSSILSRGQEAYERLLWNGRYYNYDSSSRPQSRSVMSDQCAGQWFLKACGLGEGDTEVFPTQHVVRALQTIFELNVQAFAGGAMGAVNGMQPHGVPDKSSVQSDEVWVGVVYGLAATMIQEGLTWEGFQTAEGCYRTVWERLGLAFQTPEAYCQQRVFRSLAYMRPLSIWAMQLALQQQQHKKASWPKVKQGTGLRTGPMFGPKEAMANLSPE

| SMILES | tested on | assay | test system | conditions | how to read | endpoint | value |
| --- | --- | --- | --- | --- | --- | --- | --- |
| COc1cc(N2CCN(C(=O)C3CCCN3)CC2)ccc1Nc1ncc(Cl)c(Nc2ccccc2P(C)(C)=O)n1 (stereo not shown) | – | – | mouse, plasma | oral, 10 mg/kg, 10 h | – | plasma concentration | 0.0868 µg/mL and 0.129 µg/mL |
| Cc1nn(-c2nc3c(F)cc(F)cc3s2)c(O)c1C(c1ccc(C(F)(F)F)cc1)c1c(C)nn(-c2nc3c(F)cc(F)cc3s2)c1O | – | – | ICR mouse | intraperitoneal, 10 mg/kg, 0.25 h, below LLOQ | – | plasma concentration | 0.617 µg/mL and 0.539 µg/mL |
| [2H]C([2H])([2H])C1(C([2H])([2H])[2H])NC(=O)N(c2ccc(F)c(C(C)(F)F)c2)C1=O | – | – | male Swiss outbred mice, plasma | oral, 100 mg/kg, 1 h | – | plasma concentration | 31.7 ± 4.06 µg/mL |
| O=C(NS(=O)(=O)c1cccs1)c1cc2ccccc2n1Cc1ccc(Br)c2ccccc12 | – | – | Sprague-Dawley rat, male | intravenous, dose not given, 2 h | – | plasma concentration | 0.0808 µg/mL |
| O=C1CCC(N2Cc3cc(C(=O)O)c(F)cc3C2=O)C(=O)N1 (stereo not shown) | – | – | CD-1 mice | intravenous, 1 mg/kg, 8 h | – | plasma concentration | not detected |
| Cc1noc(C)c1Cn1cc(N2C(=O)CN(Cc3cccc(O[C@@H]4O[C@H](C(=O)O)[C@@H](O)[C@H](O)[C@H]4O)c3)C2=O)cn1 | – | – | Sprague-Dawley rat, male | oral, 10 mg/kg of parent drug, 4 h | – | plasma concentration | 0.381 µg/mL |
| CCC(=O)N(C)c1ccc(Cl)c(Cl)c1 | – | – | female C57BL/6 mice | subcutaneous, 2 mg/kg, 2 h | – | plasma concentration | 0.0296 µg/mL and 0.0207 µg/mL |
| C[C@]12C[C@H](c3ccc(S(C)(=O)=O)cc3)C3=C4CCC(=O)C=C4CC[C@H]3[C@@H]1CC[C@@]2(O)C(F)(F)C(F)(F)F | – | refers to: compound (parent) | healthy human volunteers, pooled plasma | oral, 5 mg daily, day 28, 16 h | – | plasma concentration | 0.0136 µg/mL |
| OC[C@@H]1[C@@H](O)[C@H](O)[C@@H](O)CN1CCCCCCOCC12CC3CC(CC(C3)C1)C2 | GBA2 | inhibitor, 4MU-β-D-glucopyranoside | HEK293T homogenates overexpressing GBA2 | – | baseline: GBA1 IC50 over GBA2 IC50 | selectivity ratio | 50 |
| O=C1C2CC3CC1CC(C(=O)N1CCN(c4ccc([N+](=O)[O-])c5ncccc45)CC1)(C3)C2 | – | – | male ICR mice, plasma | intravenous, 1 mg/kg, 0.5 h | – | plasma concentration | 0.0169 µg/mL |
| C=CC(=O)N1CCCC(n2c(=O)c3ncccc3n(Cc3ccc(Oc4ccccc4)cc3)c2=O)C1 (stereo not shown) | – | – | male BALB/c mice, plasma | oral, 200 mg/kg, 1 h | – | plasma concentration | 20.1 µg/mL and 23.6 µg/mL |
| OC[C@@H]1[C@@H](O)[C@H](O)[C@@H](O)CN1CCCCCOCC1CCOCC1 | GBA2 | inhibitor, 4MU-β-D-glucopyranoside | HEK293T homogenates overexpressing GBA2 | – | baseline: GCS IC50 over GBA2 IC50 | selectivity ratio | 286 |
| C=C[C@]1(C)C[C@@H](OC(=O)CSc2ccc(NC(=O)c3ccco3)cc2)[C@]2(C)[C@H](C)CC[C@]3(CCC(=O)[C@H]32)[C@@H](C)[C@@H]1O | – | – | Mycoplasma gallisepticum-infected chickens, plasma | intramuscular, 5 mg/kg, 8 h | – | plasma concentration | 0.0419 µg/mL and 0.013 µg/mL and 0.0186 µg/mL and 0.027 µg/mL and 0.00607 µg/mL and 0.0461 µg/mL and 0.0337 µg/mL and 0.03 µg/mL |

A few entries again:
| SMILES | tested on | assay | test system | conditions | how to read | endpoint | value |
| --- | --- | --- | --- | --- | --- | --- | --- |
| O=C1CCC(N2Cc3cc(C(=O)O)c(F)cc3C2=O)C(=O)N1 (stereo not shown) | – | – | CD-1 mice | intravenous, 1 mg/kg, 8 h | – | plasma concentration | not detected |
